Assay results from different studies.
Several values in a cell are separate wells, animals, samples, runs or records.
Target: MAP/microtubule affinity-regulating kinase 3 (MARK3, Homo sapiens, UniProt P27448)

SMILES = Cc1cccc(-c2ccc3nc(NC(=O)C4CCOCC4)nn3c2)c1; test = enzyme activity, Dundee kinase panel; setting = 10 µM; quantity = remaining activity; result = 88%
SMILES = CCn1cc(C(=O)O)c(=O)c2c(N)c(F)c(NC3CCCCC3)cc21; test = kinase activity; setting = 0.1 µM, added: ATP at Km; quantity = inhibition; result = -7.4%
SMILES = CN1CCN(Cc2ccc(NC(=O)c3cccc(C#Cc4cnc(N)c5ncccc45)c3)cc2C(F)(F)F)CC1; test = cell-free assay, competition with immobilised ligand; setting = 50 nM; quantity = remaining binding; result = 90%
SMILES = CNC1C[S+]2CC[S+]3CC[S+](C1)[Ru-4]321([N]=C=S)[n]2c3ccc(OC)cc3c3c4c(c5cc(F)c[n+]1c5c32)C(=O)NC4=O (stereo not shown); test = KinomeScan; setting = 0.1 µM; scale = baseline: untreated; quantity = remaining binding; result = 61%
SMILES = C=CC(=O)N1CCCC(n2c(=O)c3ncccc3n(Cc3ccc(Oc4ccccc4)cc3)c2=O)C1 (stereo not shown); test = cell-free assay, competition with immobilised ligand; setting = 1 µM; quantity = remaining binding; result = 100%
SMILES = CC(=O)N1c2ccc(-c3ccc(CNC(=O)c4cn5cc(-c6cnc(N)nc6)nc(N6CCOCC6)c5n4)cc3)cc2CC[C@@H]1C; test = KINOMEscan; setting = 10 µM; quantity = remaining binding; result = 92%
SMILES = Cc1ccc(-c2c(/C=C(\C#N)C(=O)NC(C)C)n(CCCO)c3ncnc(N)c23)cc1; test = cell-free assay, competition with immobilised ligand; setting = 1 µM; quantity = remaining binding; result = 100%
SMILES = NC(=O)[C@@H](O)C[C@H]1CCc2sc3ncnc(O[C@H]4CC[C@H](N5CCOCC5)CC4)c3c21; test = enzyme activity, inhibitor; setting = 10 µM; quantity = inhibition; result = 7%
SMILES = C=CC(=O)N1Cc2nc(-c3cc(-c4cc(Cl)cnc4Cl)c(F)cc3F)n(-c3ccncn3)c2C1; test = cell-free assay, inhibitor; setting = 1 µM; quantity = inhibition; result = 8.6%
SMILES = CN1CC[C@@H](COc2cnc(C#N)cc2-c2ccn3nc(NC(=O)C4CC4)cc3c2)C1; test = enzyme activity, inhibitor; setting = 1 µM; quantity = inhibition; result = 6%
SMILES = CNC(=O)C[C@H](Cc1ccc(C#N)cc1)NC(=O)c1cc(-c2ccc(CN[C@H](C)c3ccc(C)cc3)o2)ccc1Cl; test = enzyme activity, inhibitor; setting = 1 µM; quantity = activity vs control; result = 104%
SMILES = C=CC(=O)Nc1cc(-c2nn(C3CCN(CCNC(=O)[C@H](C)CCC45CC6CC(CC(C6)C4)C5)CC3)c3ncnc(N)c23)ccc1Oc1ccccc1; test = inhibitor, KiNativ profiling; system = biochemical; setting = 2 µM; quantity = inhibition; result = 10.7%
SMILES = C=C1CCCCCCCCCC(CO)C1=O (stereo not shown); test = cell-free assay, competition with immobilised ligand; setting = 10 µM; quantity = remaining binding; result = 100%
SMILES = Cc1ccc(C)c(-c2ccc3nc(NC(=O)C4CCCCC4)nn3c2)c1; test = enzyme activity, Dundee kinase panel; setting = 10 µM; quantity = remaining activity; result = 90%
SMILES = C=CC(=O)N1CCc2ccc(-n3c(=O)ccc4cnc5ccc(-c6cnn(C)c6)cc5c43)cc21; test = KINOMEscan; setting = 1 µM; scale = baseline: DMSO control; quantity = remaining binding; result = 100%
SMILES = C=CC(=O)Nc1cccc(-c2cnc3[nH]cc(C(=O)NC(C)(C)C)c3n2)c1; test = enzyme activity, inhibitor; setting = 0.1 µM; quantity = inhibition; result = 48%
SMILES = Cc1cccc(O[C@H]2CCC[C@@H](C(C)CNCc3ccncc3)C2)c1 (relative stereo); test = enzyme activity, inhibitor; setting = 1 µM; quantity = inhibition; result = -4%
SMILES = O=C(Cc1ccc(OCc2ccccc2)cc1)NC1(C(=O)O)CCN(C(=O)c2ccc(-c3cccc(Cl)c3)cc2)CC1; test = enzyme activity, inhibitor; setting = 10 µM; quantity = activity vs control; result = 134%
SMILES = COCC12C(=O)NC3C4(C(OC)CC1O)C1CC5(O)C(OC)C(O)C(OC(C)=O)(C1C5OC(=O)c1ccccc1)C3(O)C(OC)C24 (stereo not shown); test = kinase activity, inhibitor, ProQinase kinase profiling; setting = 25 µM; scale = baseline: control; quantity = remaining activity; result = 91% and 84%

For quick reference, copied from above:
SMILES = CCn1cc(C(=O)O)c(=O)c2c(N)c(F)c(NC3CCCCC3)cc21; test = kinase activity; setting = 0.1 µM, added: ATP at Km; quantity = inhibition; result = -7.4%
SMILES = CNC(=O)C[C@H](Cc1ccc(C#N)cc1)NC(=O)c1cc(-c2ccc(CN[C@H](C)c3ccc(C)cc3)o2)ccc1Cl; test = enzyme activity, inhibitor; setting = 1 µM; quantity = activity vs control; result = 104%
SMILES = Cc1ccc(-c2c(/C=C(\C#N)C(=O)NC(C)C)n(CCCO)c3ncnc(N)c23)cc1; test = cell-free assay, competition with immobilised ligand; setting = 1 µM; quantity = remaining binding; result = 100%
